# Experimental data gathered from unrelated publications.
# Numbered parts are unrelated; each lists some results of a single study. Changes are numbered by the printed parent chain.

# Series 1
# Target: Ras GTPase-activating protein-binding protein 1, RRM domain (G3BP1, Homo sapiens, UniProt Q13283)
# Chain of UniProt Q13283 (whole entry, looked up): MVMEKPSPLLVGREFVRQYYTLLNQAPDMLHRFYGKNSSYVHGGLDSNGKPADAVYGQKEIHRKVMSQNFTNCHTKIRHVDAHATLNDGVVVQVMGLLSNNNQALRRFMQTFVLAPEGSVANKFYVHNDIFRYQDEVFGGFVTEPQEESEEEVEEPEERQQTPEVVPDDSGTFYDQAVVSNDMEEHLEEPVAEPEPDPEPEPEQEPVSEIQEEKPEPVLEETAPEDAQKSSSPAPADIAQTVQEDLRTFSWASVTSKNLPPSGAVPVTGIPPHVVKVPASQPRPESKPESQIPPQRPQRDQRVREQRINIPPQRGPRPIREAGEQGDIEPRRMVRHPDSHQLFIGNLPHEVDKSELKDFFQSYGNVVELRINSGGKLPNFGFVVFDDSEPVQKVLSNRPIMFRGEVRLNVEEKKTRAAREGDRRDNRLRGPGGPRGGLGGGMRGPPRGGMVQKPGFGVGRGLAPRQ
# Method: RNA Bind-n-Seq
# Molecule type: RNA
# Medium: in vitro
# Concentration: 1 µM
# Notes: whole 134-nt RNA, ends assumed
# With: 150 mM KCl
# Reference: input library
# Direction: higher = stronger binding
Sequence,log2 enrichment
GGGAGUUCUACAGUCCGACGAUCUCCUGUGCUACACAUCGUAUGUACCGAAUCGGGAAAAAAGGAAAAAAGGGGAAAAAAGGAAAGUAUUAUGUUACGCCGUUCGGAUCUGCAUGGAAUUCUCGGGUGUCAAGG,0.0195
GGGAGUUCUACAGUCCGACGAUCAGUCCUGUGCUACACAUCGUAUGUACCGAAUCGGGAAAAAAAGGGAAAGGGUUUGGGAAAGUAUUAUGUUACGCCGUUCGGAUCUGCACUUGGAAUUCUCGGGUGUCAAGG,0.271
GGGAGUUCUACAGUCCGACGAUCCACAGACAACACGCACCCACACAGACACAGAGGGAAAGGGUUGGGAUGGGGACAGGGUGCACAGCAGGGCGGGGUAGGACCCCAGCCCCUUGGAAUUCUCGGGUGUCAAGG,-0.132
GGGAGUUCUACAGUCCGACGAUCCUCAAGUCCUGUGCUACACAUCGUAUGUACCGAAUCGGGAGGGUUUGGGUGGGAAAGUAUUAUGUUACGCCGUUCGGAUCUGCACUUCCAUGGAAUUCUCGGGUGUCAAGG,0.468

# Series 2
# Target: CCND3, cyclin fold, Cln2 fusion (human)
# Method: yeast growth competition, sequencing
# Medium: yeast
# Notes: weak parent motif
# Reference: not given
# Direction: higher = stronger binding
# Starting sequence: CDKN1B docking peptide (human); PSACRNLFGPVDH
Substitution,normalised enrichment score
PSACRNLFGPVDT [H13T],0.079
PSACRNFFGPVDH [L7F],0.149
PSACRNLFGPVVH [D12V],0.151
PVACRNLFGPVDH [S2V],0.134
PSACFNLFGPVDH [R5F],0.0918
PSACRMLFGPVDH [N6M],0.111

# Series 3
# Target: RING finger protein unkempt homolog, zinc fingers 1-6, GST-SBP tag (UNK, Homo sapiens, UniProt Q9C0B0, residues 30-357)
# Method: RNA Bind-n-Seq
# Molecule type: RNA
# Medium: in vitro
# Concentration: not given
# Notes: RNA with constant flanks, human and mouse sites, ends assumed
# Reference: input RNA pool
# Direction: higher = stronger binding
# Shared flanks, not repeated: GGGAGUUCUACAGUCCGACGAUC … CAACAGAGGAUUGAGCAUCA
# Construct (chain): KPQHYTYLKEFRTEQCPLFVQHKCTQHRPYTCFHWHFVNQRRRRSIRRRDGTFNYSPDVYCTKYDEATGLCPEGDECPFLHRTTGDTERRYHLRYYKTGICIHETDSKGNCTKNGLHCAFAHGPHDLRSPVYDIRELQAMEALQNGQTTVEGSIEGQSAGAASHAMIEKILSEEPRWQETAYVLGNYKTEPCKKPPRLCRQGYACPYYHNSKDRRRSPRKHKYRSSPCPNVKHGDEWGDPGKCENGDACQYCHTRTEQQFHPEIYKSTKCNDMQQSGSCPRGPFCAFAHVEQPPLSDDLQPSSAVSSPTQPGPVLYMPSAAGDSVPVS
Sequence,bound/input enrichment [ratio]
UGUUUUUUUAUAGCUGUUUGUAUAAUAUGUGAGUAUUUUAUAGUAUGUUAGUUUUUAACAUAGUAAGUGCUGUAAAAUAUACUUCUUUUGUAUUCAAUUAAUCCUUUUUAAUUUUUUUUG,9.08
GUCUAUGGCCAGCGGGUCCCAUAAAGUUCAGUCUGAUUUCAUCUAUUUUCGGAAGGGUCCCUUCUUUGGCCUGGCCUGCUUUGCCAACAUGCCUGUGGAGAGCGAGCUGGAGCGAGGCGC,0.169
AUAUUUCAUAUUGCAAAGAUGUUUACAAGUAUUUUAAUUUAAGUUCAGUGAACUUUUUUGUAGCUGGGUUAAAUCUUUUUAUUUUAGUAUGGCCUUAUGGCAAAGAACACUGUAUUAUUU,2.76
CGCUUCAACUCACGGAUCCGUGUGAAGACCUACACAGAUGAGCUGACGCCCAUUGAGUCUGCUGUCUCUGUGUUCAAGGCAGCCAACUGGUAUGAAAGGGAGAUCUGGGACAUGUUUGGA,0.0813
AUUAGAGAGUCUGGCAAGGCAGACAGGGAUGGUGAUAAAAUGGCUCCUUCAGUUGAAAAGAAGAUUGCAGAACUCGAAAUGGGACUCCUUCACUUGCAGCAAAAUAUUGAAAUUCCGGAG,0.467
CUUGGGGAACGGGGGUCGCCCCAGACCUUCGGGGGCUCCUCUGUCUCUAAAGGGAGCGAUGCAGGGCACGACCAGAGCCCCGCUGAAAAGAAGGGACUGCGCUGUCAGAACCCCGCCUGC,0.104
GGGAAACAGUUUGAUUCUCCCAUGCCAAGUCCCUUUCAAGGGGGAAGCUUCACUCUUCCUUUAGAUGUCAUGAAGAAUGAAAUAGUUACAGAAACAUCGCCCUUUGCCCCUGCCUUUUUA,0.429

# Mixed results
Molecule,target,assay,system,setting,scale,quantity,value
"PhoQ, residues 284 288 289 292 302 303 NLAAMI","PhoP, residues 12 14 15 18 19 DLLYY (Escherichia coli, UniProt P23836)","Sort-seq, refers to: YFP reporter",E. coli,"PhoQ-PhoP variant library, with: 10 µM Mg2+","reference: high Mg2+ state, higher = stronger signaling",fold induction,1.2
